# Experimental data gathered from unrelated publications.
# Lines come from different studies, so protocols differ. Several values in a cell are separate wells, animals, samples, runs or records. Numbers after ± are the reported error.
# Sequence of UniProt O66465 (whole entry, looked up): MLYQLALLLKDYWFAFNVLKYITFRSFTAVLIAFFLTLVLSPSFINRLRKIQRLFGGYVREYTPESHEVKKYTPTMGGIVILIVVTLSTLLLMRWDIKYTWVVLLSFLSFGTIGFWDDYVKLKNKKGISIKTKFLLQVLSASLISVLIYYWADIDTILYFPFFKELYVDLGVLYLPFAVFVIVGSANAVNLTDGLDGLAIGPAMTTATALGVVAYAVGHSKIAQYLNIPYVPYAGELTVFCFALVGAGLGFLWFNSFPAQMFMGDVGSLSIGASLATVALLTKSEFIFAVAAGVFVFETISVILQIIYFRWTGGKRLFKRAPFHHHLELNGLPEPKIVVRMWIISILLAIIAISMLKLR
# Sequence of UniProt Q9LFP6 (whole entry, looked up): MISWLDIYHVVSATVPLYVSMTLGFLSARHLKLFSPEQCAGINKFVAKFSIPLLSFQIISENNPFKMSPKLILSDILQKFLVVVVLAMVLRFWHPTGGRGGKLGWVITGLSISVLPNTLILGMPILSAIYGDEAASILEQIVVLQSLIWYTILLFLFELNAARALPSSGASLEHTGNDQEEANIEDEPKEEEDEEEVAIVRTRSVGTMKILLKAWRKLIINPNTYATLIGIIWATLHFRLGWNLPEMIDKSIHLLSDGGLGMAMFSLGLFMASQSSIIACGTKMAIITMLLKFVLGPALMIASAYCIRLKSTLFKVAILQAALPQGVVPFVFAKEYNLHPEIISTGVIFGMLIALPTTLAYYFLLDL
# Sequence of UniProt Q9UER7 (whole entry, looked up): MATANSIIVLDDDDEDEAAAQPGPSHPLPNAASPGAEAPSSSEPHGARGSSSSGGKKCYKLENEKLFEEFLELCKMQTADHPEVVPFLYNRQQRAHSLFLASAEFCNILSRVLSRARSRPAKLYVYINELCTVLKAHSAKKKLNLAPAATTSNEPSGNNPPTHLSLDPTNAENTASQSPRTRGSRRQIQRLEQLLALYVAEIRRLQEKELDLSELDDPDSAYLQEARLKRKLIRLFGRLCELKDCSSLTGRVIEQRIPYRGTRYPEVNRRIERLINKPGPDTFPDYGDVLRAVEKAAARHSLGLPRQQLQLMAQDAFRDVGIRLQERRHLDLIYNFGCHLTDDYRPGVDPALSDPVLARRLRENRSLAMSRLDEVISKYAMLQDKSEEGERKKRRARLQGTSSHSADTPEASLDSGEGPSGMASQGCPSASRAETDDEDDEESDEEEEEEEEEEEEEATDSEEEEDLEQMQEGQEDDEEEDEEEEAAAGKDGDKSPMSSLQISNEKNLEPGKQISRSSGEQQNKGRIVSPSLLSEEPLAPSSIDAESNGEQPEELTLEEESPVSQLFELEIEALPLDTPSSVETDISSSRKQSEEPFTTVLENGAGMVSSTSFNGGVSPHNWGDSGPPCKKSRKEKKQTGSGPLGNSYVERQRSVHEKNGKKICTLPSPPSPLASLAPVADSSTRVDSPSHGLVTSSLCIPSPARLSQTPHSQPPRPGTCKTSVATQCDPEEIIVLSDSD
# Sequence of UniProt Q07741 (whole entry, looked up): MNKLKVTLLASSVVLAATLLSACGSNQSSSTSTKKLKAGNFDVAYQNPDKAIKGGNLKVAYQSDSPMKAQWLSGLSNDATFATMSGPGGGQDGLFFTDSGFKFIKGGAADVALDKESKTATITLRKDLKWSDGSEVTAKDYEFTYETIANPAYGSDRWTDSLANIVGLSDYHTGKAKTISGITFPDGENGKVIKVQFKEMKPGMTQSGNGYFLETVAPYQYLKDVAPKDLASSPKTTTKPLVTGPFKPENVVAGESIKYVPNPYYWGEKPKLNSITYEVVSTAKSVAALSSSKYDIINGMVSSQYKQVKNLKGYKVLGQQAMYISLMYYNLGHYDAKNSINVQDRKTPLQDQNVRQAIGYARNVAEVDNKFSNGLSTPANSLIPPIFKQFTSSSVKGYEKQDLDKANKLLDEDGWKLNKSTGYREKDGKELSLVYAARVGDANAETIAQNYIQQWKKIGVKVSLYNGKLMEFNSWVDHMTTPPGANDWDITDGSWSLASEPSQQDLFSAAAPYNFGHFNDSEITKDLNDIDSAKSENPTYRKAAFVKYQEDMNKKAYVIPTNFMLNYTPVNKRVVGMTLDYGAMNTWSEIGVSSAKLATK
# Sequence of UniProt P25440 (whole entry, looked up): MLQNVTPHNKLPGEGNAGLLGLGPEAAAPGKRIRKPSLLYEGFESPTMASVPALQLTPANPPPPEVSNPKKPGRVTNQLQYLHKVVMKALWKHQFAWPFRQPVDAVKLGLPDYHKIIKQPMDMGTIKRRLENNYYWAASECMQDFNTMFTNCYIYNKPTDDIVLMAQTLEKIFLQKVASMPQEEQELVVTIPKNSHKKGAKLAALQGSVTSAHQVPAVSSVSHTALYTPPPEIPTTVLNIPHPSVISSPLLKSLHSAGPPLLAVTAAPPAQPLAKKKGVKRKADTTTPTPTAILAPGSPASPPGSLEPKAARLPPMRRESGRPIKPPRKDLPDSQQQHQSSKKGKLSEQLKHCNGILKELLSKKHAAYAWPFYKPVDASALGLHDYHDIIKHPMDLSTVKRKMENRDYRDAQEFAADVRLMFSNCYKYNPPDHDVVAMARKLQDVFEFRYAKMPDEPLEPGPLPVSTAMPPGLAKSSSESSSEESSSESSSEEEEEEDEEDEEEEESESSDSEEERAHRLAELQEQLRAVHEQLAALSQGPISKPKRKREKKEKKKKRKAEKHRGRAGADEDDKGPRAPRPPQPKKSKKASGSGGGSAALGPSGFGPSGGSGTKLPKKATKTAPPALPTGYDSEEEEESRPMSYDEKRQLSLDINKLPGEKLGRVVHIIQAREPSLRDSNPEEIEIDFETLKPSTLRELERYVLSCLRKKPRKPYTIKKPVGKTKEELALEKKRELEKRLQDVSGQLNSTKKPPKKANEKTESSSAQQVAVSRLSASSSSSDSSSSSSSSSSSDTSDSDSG
# Sequence of UniProt P51449 (whole entry, looked up): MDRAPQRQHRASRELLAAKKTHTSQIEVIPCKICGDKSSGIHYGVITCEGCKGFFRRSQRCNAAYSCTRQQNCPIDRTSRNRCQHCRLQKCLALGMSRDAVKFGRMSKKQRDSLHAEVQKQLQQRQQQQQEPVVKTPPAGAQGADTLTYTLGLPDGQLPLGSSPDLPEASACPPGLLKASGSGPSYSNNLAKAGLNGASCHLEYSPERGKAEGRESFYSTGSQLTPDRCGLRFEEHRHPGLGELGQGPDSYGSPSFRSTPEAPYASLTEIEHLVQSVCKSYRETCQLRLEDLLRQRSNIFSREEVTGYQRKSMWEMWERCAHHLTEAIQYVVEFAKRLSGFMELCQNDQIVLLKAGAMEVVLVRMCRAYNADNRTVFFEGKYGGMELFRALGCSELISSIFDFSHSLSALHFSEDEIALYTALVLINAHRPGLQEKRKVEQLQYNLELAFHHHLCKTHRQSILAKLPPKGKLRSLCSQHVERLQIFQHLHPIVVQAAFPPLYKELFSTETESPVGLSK
# Sequence of UniProt P08238 (whole entry, looked up): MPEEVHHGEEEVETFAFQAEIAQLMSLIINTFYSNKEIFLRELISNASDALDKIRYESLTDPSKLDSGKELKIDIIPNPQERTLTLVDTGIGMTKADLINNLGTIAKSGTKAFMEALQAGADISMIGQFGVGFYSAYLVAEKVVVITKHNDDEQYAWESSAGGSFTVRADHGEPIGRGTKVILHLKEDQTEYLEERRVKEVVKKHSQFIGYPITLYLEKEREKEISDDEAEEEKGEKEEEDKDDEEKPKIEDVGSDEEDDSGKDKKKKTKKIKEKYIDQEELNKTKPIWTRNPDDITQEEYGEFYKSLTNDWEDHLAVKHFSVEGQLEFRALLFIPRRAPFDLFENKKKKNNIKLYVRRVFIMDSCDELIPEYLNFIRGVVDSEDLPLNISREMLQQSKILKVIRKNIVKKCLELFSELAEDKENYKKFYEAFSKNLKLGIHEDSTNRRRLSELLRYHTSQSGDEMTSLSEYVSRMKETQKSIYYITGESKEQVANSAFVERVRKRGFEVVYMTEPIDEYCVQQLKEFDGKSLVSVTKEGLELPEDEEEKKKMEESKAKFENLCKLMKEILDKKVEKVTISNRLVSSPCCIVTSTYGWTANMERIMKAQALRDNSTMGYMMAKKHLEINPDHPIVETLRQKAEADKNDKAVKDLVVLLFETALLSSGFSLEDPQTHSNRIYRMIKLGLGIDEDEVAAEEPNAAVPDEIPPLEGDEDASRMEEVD
# Sequence of UniProt P06971 (whole entry, looked up): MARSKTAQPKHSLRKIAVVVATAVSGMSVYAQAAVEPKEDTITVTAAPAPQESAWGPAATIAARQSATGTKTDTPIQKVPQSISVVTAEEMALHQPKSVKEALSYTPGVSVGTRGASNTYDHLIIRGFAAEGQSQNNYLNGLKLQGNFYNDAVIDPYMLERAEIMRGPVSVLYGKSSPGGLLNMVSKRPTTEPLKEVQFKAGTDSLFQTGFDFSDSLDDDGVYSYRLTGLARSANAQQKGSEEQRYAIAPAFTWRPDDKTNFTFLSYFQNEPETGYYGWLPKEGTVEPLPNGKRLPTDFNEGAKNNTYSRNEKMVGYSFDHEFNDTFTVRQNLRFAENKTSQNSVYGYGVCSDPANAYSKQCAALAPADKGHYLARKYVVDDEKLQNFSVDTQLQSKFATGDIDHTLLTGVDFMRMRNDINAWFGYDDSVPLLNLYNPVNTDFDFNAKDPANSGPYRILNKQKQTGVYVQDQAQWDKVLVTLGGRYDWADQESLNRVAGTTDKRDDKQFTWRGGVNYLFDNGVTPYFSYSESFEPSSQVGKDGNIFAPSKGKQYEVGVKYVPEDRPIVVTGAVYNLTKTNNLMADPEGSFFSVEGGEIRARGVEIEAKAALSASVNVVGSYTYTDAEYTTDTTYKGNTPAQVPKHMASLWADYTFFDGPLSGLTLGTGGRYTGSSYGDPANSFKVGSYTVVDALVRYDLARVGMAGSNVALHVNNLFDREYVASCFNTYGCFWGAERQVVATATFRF
# Sequence of UniProt Q06911 (whole entry, looked up): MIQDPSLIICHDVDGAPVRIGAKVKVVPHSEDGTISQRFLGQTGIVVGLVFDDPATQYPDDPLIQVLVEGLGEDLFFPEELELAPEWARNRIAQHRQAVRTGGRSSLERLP
SMILES,target,test,test system,conditions,Kd
CC[C@H](C)[C@H](NC(=O)[C@H](CCC(=O)O)NC(=O)[C@H](CC(=O)O)NC(=O)[C@H](CC(=O)O)NC(=O)[C@H](CC(=O)O)NC(=O)[C@H](CCCNC(=N)N)NC(=O)[C@@H](N)Cc1ccc(O)cc1)C(=O)N[C@@H](CC(=O)O)C(=O)N[C@H](C(=O)N[C@H](C(=O)N[C@@H](CO)C(=O)N1CCC[C@H]1C(=O)N[C@@H](Cc1c[nH]cn1)C(=O)O)C(C)C)C(C)C,"Protein will die slowly, residues 50-361 (wds, Drosophila melanogaster, UniProt Q9V3J8)","binding, ITC",,"pH 7.0, 25 °C",8.6 µM
CCC(C(=O)OC)C1N=C(c2ccc(Cl)cc2)c2cc(OC)ccc2-n2c(C)nnc21 (stereo not shown),"Bromodomain-containing protein 2, BD2 (BRD2, Homo sapiens, UniProt P25440)","binding, ITC",,,17 µM
Cc1cc(Cl)ccc1OCC(=O)O,"PIN8 (Arabidopsis thaliana, UniProt Q9LFP6)",cell-free assay,,,137 µM
CC[C@H](C)[C@H](NC(=O)CNC(=O)[C@@H](NC(=O)[C@H](Cc1ccccc1)NC(=O)[C@H](Cc1ccc(O)cc1)NC(=O)[C@@H]1CCC(=O)NCC(=O)NCC(=O)N[C@@H](C)C(=O)NCC(=O)N[C@@H](CCCCN)C(=O)N[C@@H](C(C)C)C(=O)N2CCC[C@H]2C(=O)N1)C(C)C)C(=O)NCC(=O)N[C@H](C(=O)N1CCC[C@H]1C(=O)N[C@H](C(=O)N[C@@H](CO)C(=O)N[C@@H](Cc1ccccc1)C(=O)N[C@@H](Cc1ccc(O)cc1)C(=O)NCC(=O)O)[C@@H](C)CC)[C@@H](C)O,"fhuA (Escherichia coli, UniProt P06971)","binding, native ESI mass spectrometry titration",MG1655,,16.9 ± 0.4 µM
N[C@H](Cc1ccccc1)P(=O)(O)O,"PAL1 (Petroselinum crispum, UniProt P24481, Y110F)",ITC,,"pH 8.0, 30 °C",6.2 µM
CC[C@H](C)[C@H](NC(=O)[C@H](Cc1c[nH]cn1)NC(=O)[C@H](CCCCNC(=O)[C@@H](NC(=O)[C@H](CCCCN)NC(=O)CSC[C@H](NC(=O)[C@H](Cc1ccccc1)NC(=O)[C@H](CCCCNC(=O)[C@H](CC(C)C)NC(=O)[C@H](CCCCN)NC(=O)[C@H](CCCCN)NC(=O)C[C@@H]1O[C@@H](C)[C@@H](O)[C@@H](O)[C@@H]1O)NC(=O)[C@H](CC(C)C)NC(=O)[C@H](CCCCN)NC(=O)[C@H](CCCCN)NC(=O)CCS[C@@H]1O[C@H](CO)[C@H](O)[C@H](O)[C@H]1O)C(N)=O)[C@@H](C)CC)NC(=O)[C@@H](NC(=O)[C@H](CCCCN)NC(=O)CSC[C@H](NC(=O)[C@H](Cc1ccccc1)NC(=O)[C@H](CCCCNC(=O)[C@H](CC(C)C)NC(=O)[C@H](CCCCN)NC(=O)[C@H](CCCCN)NC(=O)C[C@@H]1O[C@@H](C)[C@@H](O)[C@@H](O)[C@@H]1O)NC(=O)[C@H](CC(C)C)NC(=O)[C@H](CCCCN)NC(=O)[C@H](CCCCN)NC(=O)CCS[C@@H]1O[C@H](CO)[C@H](O)[C@H](O)[C@H]1O)C(N)=O)[C@@H](C)CC)C(N)=O,"lecB (Pseudomonas aeruginosa, UniProt Q9HYN5)","binding, ITC",,pH 7.5,0.193 µM
N=C(N)NCCC[C@H](NC(=O)[C@H](Cc1ccccc1)NC(=O)[C@@H]1CCCN1C(=O)[C@H](CO)NC(=O)[C@H](Cc1ccccc1)NC(=O)CNC(=O)[C@@H]1CCCN1C(=O)[C@@H]1CCCN1C(=O)[C@@H](N)CCCNC(=N)N)C(=O)N[C@@H](CCCCNS(=O)(=O)c1ccc(C2=c3cc4c5c(c3Oc3c2cc2c6c3CCCN6CCC2)CCC[N+]=5CCC4)c(S(=O)(=O)[O-])c1)C(=O)O,"Oligopeptide-binding protein OppA (oppA, Lactococcus lactis subsp. lactis, UniProt Q07741)","binding, fluorescence anisotropy",,"pH 5, 24 °C, added: dye-labelled peptide",12.3 ± 0.5 µM
CC[C@H](C)[C@H](NC(=O)[C@H](CCC(=O)O)NC(=O)[C@H](CCC(=O)O)NC(=O)[C@H](CC(C)C)NC(=O)[C@H](CC(C)C)NC(=O)[C@H](CCSC)NC(=O)[C@]1(C)CCCC=CCCC[C@](C)(NC(=O)[C@H](CC(N)=O)NC(=O)[C@H](CCC(=O)O)NC(=O)[C@@H]2CCCN2C(=O)[C@H](CC(=O)O)NC(=O)[C@H](CC(N)=O)NC(=O)[C@H](CC(=O)O)NC(=O)[C@H](CC(=O)O)NC(=O)[C@@H](N)CO)C(=O)N[C@@H]([C@@H](C)CC)C(=O)N[C@@H](C)C(=O)N[C@@H](CCCCN)C(=O)N1)C(=O)N[C@@H](CCCCN)C(=O)N[C@@H](C)C(=O)N[C@@H](CC(N)=O)C(=O)N[C@@H](CC(C)C)C(=O)N[C@@H](CO)C(=O)O,"Death domain-associated protein 6 (Homo sapiens, UniProt Q9UER7)","binding, ITC",,pH 7.5,0.09 µM
CC(C)CC(NC(=O)C(NC(=O)NC(C(=O)O)C(C)C)C1CCNC(=N)N1)C(=O)NCCCNC(C(=O)O)C(OC1OC(CN)C(O)C1O)C1OC(n2ccc(=O)[nH]c2=O)C(O)C1O (stereo not shown),"mraY (Aquifex aeolicus, UniProt O66465)",isothermal titration calorimetry,,"37 °C, added: 10 mM MgCl2",0.0204 µM and ~0.02 µM
CC[C@@H]1[C@@H](C)O[C@@](O)([C@@H](C)[C@H](O)[C@H](C)[C@H]2OC(=O)/C=C/C=C/[C@H](C)[C@@H]([C@@H](C)[C@@H](O)[C@H](C)[C@@]3(O)C[C@@H](O[C@H]4C[C@H](O)[C@H](O)[C@H](C)O4)[C@H](CC)[C@@H](C)O3)OC(=O)/C=C/C=C/[C@@H]2C)C[C@H]1O[C@H]1C[C@H](O)[C@H](O)[C@H](C)O1,"RORC (Homo sapiens, UniProt P51449)","binding, SPR",,,5.05 µM
CSCC[C@H](NC(C)=O)C(=O)N[C@H](C(=O)N[C@@H](Cc1ccccc1)C(=O)N[C@@H](CC(C)C)C(=O)N[C@@H](CC(=O)O)C(=O)N[C@H](C(=O)N[C@H]1CSCc2cccc(c2)CSC[C@@H](C(=O)N[C@@H](Cc2ccc(O)cc2)C(=O)N[C@H](C(=O)N[C@@H](CO)C(=O)N[C@@H](Cc2ccccc2)C(=O)N[C@@H](CCSC)C(=O)NCC(=O)N[C@@H](CO)C(=O)NCC(=O)N[C@@H](CO)C(=O)NCC(=O)N[C@@H](CO)C(=O)N[C@@H](CC(=O)O)C(=O)N[C@@H](Cc2ccc(O)cc2)C(=O)N[C@@H](CCCCN)C(=O)N[C@@H](CC(=O)O)C(=O)N[C@@H](CC(=O)O)C(=O)N[C@@H](CC(=O)O)C(=O)N[C@@H](CC(=O)O)C(=O)N[C@@H](CCCCN)C(N)=O)C(C)C)NC(=O)[C@H](CCCNC(=N)N)NC(=O)[C@H]([C@@H](C)O)NC1=O)[C@@H](C)O)[C@@H](C)O,"FGFR1 (Homo sapiens, UniProt P11362)","binding, BLI",,,> 10 µM
CC[C@H](C)[C@H](NC(=O)[C@@H](N)CCCNC(=N)N)C(=O)N[C@@H](CC(N)=O)C(=O)N[C@@H](CC(N)=O)C(=O)N[C@H](C(=O)N1C[C@@H](n2cc([C]34[CH]5[CH]6[CH]7[CH]3[Fe]6754389%10[CH]4[CH]3[CH]8[CH]9[CH]4%10)nn2)C[C@H]1C(=O)N[C@@H](Cc1c[nH]c2ccccc12)C(=O)N[C@@H](CO)C(=O)N[C@@H](CCC(=O)O)C(=O)N[C@@H](C)C(=O)N[C@@H](CCSC)C(=O)N[C@@H](CCSC)C(N)=O)[C@@H](C)CC (stereo partly shown),"HIV-1 92UG037-08 gp120, clade A",SPR,,,0.0163 µM
CC(C)C[C@H](NC(=O)[C@H](C)NC(=O)[C@H](CCCCN)NC(=O)[C@H](CCCNC(=N)N)NC(=O)[C@H](CCC(=O)O)NC(=O)[C@H](C)NC(=O)[C@H](CCC(=O)O)NC(=O)[C@H](CCCCN)NC(=O)[C@H](CCCCN)NC(=O)[C@H](CC(=O)O)NC(=O)[C@H](Cc1c[nH]cn1)NC(=O)[C@H](CC(=O)O)NC(=O)[C@H](Cc1c[nH]cn1)NC(=O)[C@H](CCCNC(=N)N)NC(=O)[C@H](CCC(=O)O)NC(=O)[C@H](CO)NC(=O)[C@H](CCCCN)NC(=O)[C@H](CC(C)C)NC(=O)[C@H](CCCNC(=N)N)NC(=O)[C@H](CCC(=O)O)NC(=O)[C@H](CC(C)C)NC(=O)[C@H](CCC(=O)O)NC(=O)[C@H](C)NC(=O)[C@H](CCC(=O)O)NC(=O)[C@H](CCC(=O)O)NC(=O)[C@H](C)NC(=O)[C@H](C)NC(=O)[C@H](CCC(=O)O)NC(=O)[C@H](CC(N)=O)NC(=O)[C@H](CCCCN)NC(=O)[C@H](CC(C)C)NC(=O)[C@H](CCCNC(=N)N)NC(=O)[C@H](CCC(N)=O)NC(=O)[C@H](CC(C)C)NC(=O)[C@H](CCC(=O)O)NC(=O)[C@H](C)NC(=O)[C@H](CC(=O)O)NC(=O)[C@H](C)NC(=O)[C@@H](NC(=O)[C@H](CC(C)C)NC(=O)[C@H](CCCCN)NC(=O)[C@H](CCC(=O)O)NC(=O)[C@@H](NC(=O)[C@H](CO)NC(=O)CN)C(C)C)[C@@H](C)O)C(=O)N[C@@H](CCC(=O)O)C(=O)N[C@@H](CC(=O)O)C(=O)N[C@@H](CCCCN)C(=O)N[C@@H](CC(C)C)C(=O)N[C@@H](C)C(=O)N[C@@H](CC(=O)O)C(=O)N[C@@H](Cc1ccc(O)cc1)C(=O)O,"Plasminogen, kringle 2 domain (PLG, Homo sapiens, UniProt P00747, C188G/E240D/L256Y)",isothermal titration calorimetry,K2-plasminogen,"pH 7.4, 25 °C",0.009 ± 0.002 µM
CC[C@H](C)[C@H](NC(=O)[C@H](CCC(N)=O)NC(=O)[C@@H](NC(=O)[C@H](CO)NC(=O)CNC(=O)CNC(=O)CNC(=O)[C@@H]1CCCN1C(=O)[C@@H](NC(=O)[C@H](Cc1c[nH]cn1)NC(=O)[C@H](CCCCN)NC(=O)[C@H](CCCCN)NC(=O)CNC(=O)CNC(=O)CNC(=O)[C@@H](N)CSC1CC(=O)N(c2ccc3c(c2)C(=O)OC32c3ccc(N(C)C)cc3Oc3cc(N(C)C)ccc32)C1=O)C(C)C)C(C)C)C(=O)N[C@H](C(=O)N[C@@H](Cc1ccc(O)cc1)C(=O)N[C@@H](CCCCN)C(=O)N1CCC[C@H]1C(=O)N[C@H](C(=O)N[C@@H](CC(=O)O)C(=O)N[C@@H](CC(C)C)C(=O)O)C(C)C)C(C)C (stereo partly shown),"Tubulin alpha-1A/beta chain (Sus scrofa, UniProt P02550+P02554)","binding, equilibrium dialysis",,"pH 6.9, 25 °C",6 µM
CC[C@H](C)[C@H]1C(=O)O[C@H](C(C)C)C(=O)N(C)[C@@H]([C@@H](C)CC)C(=O)O[C@H](C(C)C)C(=O)N(C)[C@@H]([C@@H](C)CC)C(=O)O[C@H](C(C)C)C(=O)N1C,"HSP90AB1 (Homo sapiens, UniProt P08238)","binding, SPR",,,15.9 µM
CC[C@H](C)[C@H](NC(=O)CNC(C)=O)C(=O)N[C@@H](CCCNC(=N)N)C(=O)N[C@@H](CCC(=O)O)C(=O)N[C@@H](C)C(=O)N[C@H](C(=O)N[C@@H](CC(C)C)C(=O)N[C@@H](CCCNC(=N)N)C(=O)N[C@@H](C)C(=O)N[C@@H](Cc1c[nH]c2ccccc12)C(=O)N[C@@H](CCC(=O)O)C(=O)N[C@@H](CCCNC(=N)N)C(=O)N[C@@H](CCCNC(=N)N)C(=O)N[C@@H](Cc1ccc(O)cc1)C(=O)NCC(=O)N[C@@H](Cc1ccccc1)C(=O)N1CCC[C@H]1C(=O)N[C@@H](CCCNC(=N)N)C(=O)N1CCC[C@H]1C(=O)N[C@@H](CC(C)C)C(=O)N[C@@H](CCCNC(=N)N)C(=O)N[C@@H](CO)C(=O)N[C@@H](CCC(=O)O)C(N)=O)[C@@H](C)O,"Antirepressor protein CarS (carS, Myxococcus xanthus, UniProt Q06911)",isothermal titration calorimetry,,"pH 7.5, 35 °C",0.27 ± 0.022 µM
